# Published values pooled from the literature.
# Compare with care: the assays were run in different laboratories. Several values in a cell are separate wells, animals, samples, runs or records. ± gives the spread as reported.
# Chain of UniProt D0VWV4 (whole entry, looked up): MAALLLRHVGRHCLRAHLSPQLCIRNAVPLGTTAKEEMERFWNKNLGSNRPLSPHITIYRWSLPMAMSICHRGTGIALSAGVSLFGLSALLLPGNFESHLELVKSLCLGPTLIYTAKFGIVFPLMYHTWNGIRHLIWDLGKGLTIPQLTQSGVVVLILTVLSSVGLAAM
# Chain of UniProt Q9EPB5 (whole entry, looked up): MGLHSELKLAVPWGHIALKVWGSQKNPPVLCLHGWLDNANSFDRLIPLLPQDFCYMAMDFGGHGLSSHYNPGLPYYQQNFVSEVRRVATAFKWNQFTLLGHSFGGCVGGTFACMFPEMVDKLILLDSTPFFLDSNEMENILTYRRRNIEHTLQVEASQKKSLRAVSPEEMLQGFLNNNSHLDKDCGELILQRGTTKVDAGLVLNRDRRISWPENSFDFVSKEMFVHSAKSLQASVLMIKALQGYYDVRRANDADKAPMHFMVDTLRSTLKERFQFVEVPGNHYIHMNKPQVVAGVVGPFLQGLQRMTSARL
# Chain of UniProt Q007T0 (whole entry, looked up): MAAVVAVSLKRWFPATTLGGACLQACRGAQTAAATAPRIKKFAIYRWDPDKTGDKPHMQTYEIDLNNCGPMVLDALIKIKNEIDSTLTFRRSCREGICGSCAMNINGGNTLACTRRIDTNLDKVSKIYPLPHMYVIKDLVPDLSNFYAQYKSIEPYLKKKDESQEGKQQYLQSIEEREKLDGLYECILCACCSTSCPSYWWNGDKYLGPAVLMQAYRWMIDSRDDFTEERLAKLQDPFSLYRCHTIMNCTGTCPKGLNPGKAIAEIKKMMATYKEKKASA
# Chain of UniProt A5GZW8 (whole entry, looked up): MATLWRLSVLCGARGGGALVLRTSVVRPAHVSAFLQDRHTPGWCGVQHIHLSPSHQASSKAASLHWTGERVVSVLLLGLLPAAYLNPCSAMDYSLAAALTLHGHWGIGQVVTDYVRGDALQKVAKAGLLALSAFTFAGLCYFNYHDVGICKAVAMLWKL
# Chain of UniProt Q9Y2J8 (whole entry, looked up): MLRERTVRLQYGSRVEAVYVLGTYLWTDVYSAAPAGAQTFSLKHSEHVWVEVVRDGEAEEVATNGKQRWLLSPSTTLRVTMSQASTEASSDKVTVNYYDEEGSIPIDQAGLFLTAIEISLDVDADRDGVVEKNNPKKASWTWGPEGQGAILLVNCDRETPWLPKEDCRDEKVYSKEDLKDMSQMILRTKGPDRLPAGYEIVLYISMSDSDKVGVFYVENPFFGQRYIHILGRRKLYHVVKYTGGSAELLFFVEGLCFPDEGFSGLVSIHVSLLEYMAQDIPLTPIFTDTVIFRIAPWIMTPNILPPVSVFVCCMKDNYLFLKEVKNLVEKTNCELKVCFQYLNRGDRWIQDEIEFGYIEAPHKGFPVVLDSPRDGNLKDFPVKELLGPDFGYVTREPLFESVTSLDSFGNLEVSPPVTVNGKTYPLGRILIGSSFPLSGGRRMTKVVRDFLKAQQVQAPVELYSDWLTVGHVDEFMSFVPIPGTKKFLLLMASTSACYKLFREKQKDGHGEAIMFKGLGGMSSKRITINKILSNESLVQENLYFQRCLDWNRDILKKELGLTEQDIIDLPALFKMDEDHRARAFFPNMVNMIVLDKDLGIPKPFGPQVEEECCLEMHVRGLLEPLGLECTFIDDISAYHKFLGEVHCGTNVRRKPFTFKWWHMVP
# Chain of UniProt P57678 (whole entry, looked up): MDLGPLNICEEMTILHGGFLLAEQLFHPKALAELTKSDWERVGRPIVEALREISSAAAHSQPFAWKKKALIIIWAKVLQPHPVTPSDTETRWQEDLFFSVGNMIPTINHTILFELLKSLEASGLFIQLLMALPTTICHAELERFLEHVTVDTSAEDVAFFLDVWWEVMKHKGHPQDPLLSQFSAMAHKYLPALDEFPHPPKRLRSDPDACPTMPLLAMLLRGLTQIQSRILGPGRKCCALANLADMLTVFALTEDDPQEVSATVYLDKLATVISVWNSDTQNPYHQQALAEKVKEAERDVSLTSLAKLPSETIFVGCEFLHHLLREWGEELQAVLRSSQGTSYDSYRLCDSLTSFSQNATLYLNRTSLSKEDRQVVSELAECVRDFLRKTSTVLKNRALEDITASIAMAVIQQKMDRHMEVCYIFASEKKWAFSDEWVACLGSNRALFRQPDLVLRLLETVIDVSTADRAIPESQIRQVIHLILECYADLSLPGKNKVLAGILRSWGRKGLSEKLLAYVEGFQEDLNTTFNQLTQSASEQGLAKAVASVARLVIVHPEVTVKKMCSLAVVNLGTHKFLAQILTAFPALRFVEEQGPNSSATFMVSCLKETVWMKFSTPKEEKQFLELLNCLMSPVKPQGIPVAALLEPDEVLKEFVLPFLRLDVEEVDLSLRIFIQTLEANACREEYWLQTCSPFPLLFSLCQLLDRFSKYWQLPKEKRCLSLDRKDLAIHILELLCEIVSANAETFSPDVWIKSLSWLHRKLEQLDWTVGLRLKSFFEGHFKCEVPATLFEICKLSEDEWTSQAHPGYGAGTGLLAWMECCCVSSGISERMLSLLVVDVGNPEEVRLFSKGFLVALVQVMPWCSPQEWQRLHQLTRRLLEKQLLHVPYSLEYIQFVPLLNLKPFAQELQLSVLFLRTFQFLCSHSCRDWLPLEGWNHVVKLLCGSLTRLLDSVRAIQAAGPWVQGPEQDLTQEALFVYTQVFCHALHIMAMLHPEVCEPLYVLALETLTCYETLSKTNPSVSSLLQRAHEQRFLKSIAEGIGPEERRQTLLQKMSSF
# Chain of UniProt Q16620 (whole entry, looked up): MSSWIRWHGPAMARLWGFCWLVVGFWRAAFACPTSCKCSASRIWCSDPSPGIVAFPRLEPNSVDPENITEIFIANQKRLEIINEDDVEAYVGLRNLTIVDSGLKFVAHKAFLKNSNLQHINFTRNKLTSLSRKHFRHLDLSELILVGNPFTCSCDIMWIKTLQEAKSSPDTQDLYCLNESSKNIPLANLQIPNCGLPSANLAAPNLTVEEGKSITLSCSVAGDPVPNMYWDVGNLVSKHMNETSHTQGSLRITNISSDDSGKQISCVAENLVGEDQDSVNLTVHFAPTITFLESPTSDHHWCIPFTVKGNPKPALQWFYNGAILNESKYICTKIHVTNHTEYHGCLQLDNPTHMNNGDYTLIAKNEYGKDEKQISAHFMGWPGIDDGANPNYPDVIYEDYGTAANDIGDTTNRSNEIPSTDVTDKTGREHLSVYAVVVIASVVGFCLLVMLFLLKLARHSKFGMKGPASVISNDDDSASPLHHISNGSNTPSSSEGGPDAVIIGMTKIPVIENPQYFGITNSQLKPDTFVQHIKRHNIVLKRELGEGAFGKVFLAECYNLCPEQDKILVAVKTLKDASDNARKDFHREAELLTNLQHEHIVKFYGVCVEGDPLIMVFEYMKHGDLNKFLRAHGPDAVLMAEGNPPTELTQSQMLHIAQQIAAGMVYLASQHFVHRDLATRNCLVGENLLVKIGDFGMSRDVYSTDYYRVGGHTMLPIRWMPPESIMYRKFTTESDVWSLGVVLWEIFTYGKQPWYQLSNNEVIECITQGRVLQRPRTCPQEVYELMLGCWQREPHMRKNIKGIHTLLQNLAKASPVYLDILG
# Chain of UniProt P21554 (whole entry, looked up): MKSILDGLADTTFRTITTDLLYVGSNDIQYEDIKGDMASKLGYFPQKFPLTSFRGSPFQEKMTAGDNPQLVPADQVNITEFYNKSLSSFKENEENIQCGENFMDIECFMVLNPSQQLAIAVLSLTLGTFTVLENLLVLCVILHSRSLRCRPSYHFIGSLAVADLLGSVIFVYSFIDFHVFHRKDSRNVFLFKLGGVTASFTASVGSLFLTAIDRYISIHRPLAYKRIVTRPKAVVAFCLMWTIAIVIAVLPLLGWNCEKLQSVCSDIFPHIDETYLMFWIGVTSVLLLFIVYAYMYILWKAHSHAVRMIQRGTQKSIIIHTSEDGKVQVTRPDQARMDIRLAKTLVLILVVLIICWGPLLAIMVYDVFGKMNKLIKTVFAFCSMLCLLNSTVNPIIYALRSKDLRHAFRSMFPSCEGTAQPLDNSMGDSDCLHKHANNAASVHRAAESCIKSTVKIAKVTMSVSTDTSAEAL
# Chain of UniProt Q16644 (whole entry, looked up): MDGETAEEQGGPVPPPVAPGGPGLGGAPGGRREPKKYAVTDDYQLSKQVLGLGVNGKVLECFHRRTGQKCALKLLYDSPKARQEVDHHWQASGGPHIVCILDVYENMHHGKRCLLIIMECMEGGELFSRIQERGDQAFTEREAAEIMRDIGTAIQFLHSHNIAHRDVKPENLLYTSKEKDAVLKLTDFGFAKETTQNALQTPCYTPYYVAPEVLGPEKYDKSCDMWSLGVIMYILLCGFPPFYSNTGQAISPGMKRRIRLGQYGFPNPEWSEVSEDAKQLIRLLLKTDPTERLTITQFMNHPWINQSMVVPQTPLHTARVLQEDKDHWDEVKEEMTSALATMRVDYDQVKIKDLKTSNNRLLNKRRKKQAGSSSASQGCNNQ
# Chain of UniProt Q01959 (whole entry, unmodified, looked up): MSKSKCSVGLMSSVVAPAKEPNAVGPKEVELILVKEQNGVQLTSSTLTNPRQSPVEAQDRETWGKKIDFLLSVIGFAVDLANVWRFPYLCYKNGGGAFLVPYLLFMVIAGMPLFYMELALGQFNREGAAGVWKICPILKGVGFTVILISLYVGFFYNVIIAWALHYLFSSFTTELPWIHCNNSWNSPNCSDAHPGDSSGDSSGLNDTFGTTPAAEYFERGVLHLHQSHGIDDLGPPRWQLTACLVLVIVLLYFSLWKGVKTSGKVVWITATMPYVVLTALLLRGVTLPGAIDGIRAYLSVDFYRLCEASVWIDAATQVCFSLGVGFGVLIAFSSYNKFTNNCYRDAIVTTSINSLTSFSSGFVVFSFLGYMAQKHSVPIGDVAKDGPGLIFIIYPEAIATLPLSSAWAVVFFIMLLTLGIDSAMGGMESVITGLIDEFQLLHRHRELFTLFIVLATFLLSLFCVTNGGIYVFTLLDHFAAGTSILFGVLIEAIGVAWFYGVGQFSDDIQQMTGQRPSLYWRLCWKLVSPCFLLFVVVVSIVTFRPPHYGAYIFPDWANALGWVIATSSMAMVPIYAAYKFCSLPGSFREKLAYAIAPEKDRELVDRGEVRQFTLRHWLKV
SMILES,tested on,assay,system,setting,scale,endpoint,result
CC(=O)N[C@@H](CC(C)C)C(=O)N[C@H](C(=O)N[C@@H](Cc1ccccc1)C(=O)N[C@]1(C)CCCCCC/C=C/CCC[C@@](C)(C(=O)N[C@@H](C)C(=O)N[C@@H](C)C(=O)N[C@@H](C)C(=O)N[C@@H](C)C(=O)N[C@@H](C)C(=O)N[C@H](C)C(N)=O)NC(=O)[C@H](CC(C)C)NC(=O)[C@H](CCCCNC(=O)CCNC(=O)C[C@@H]2N=C(c3ccc(Cl)cc3)c3c(sc(C)c3C)-n3c(C)nnc32)NC(=O)[C@H](C)NC(=O)[C@H](Cc2c[nH]c3ccccc23)NC(=O)[C@H](Cc2ccc(O)cc2)NC(=O)[C@H](C)NC1=O)[C@@H](C)O,,,"C57BL/6 mice, blood","intravenous, 3 mg/kg twice weekly, 2 weeks",reference: leukocytes,neutrophils,13%
O=C(CN1CN(c2ccccc2)C2(CCN(C(=O)c3cnc4[nH]ncc4c3)CC2)C1=O)NCC(F)(F)F,"MET (Homo sapiens, UniProt P08581, M1250T)",inhibitor,,concentration not given,,inhibition,< 50%
CCC[C@H](C(=O)c1ccccc1)N1CCCC1,"SLC6A3 (Homo sapiens, UniProt Q01959)","dopamine uptake, inhibitor",HEK293 transiently transfected,"DAT S149A/S429G mutant, with: [3H]dopamine",,Ki,581 nM
CN(C)[C@H](CNC(=O)/C=C/c1cccc2ccccc12)Cc1ccc(O)cc1,"Mu-type opioid receptor, with GoA (OPRM1, Homo sapiens, UniProt P35372)","receptor activation, agonist",,,,Emax,73 ± 4%
NCC(=O)N[C@H](Cc1ccccc1)C(=O)N[C@@H](Cc1ccccc1)C(=O)N[C@@H](CCC(=O)O)C(=O)O,"uncharacterized protein (Aplysia californica, UniProt A0ABM0K1K5)",IP1 accumulation,CHO-K1 transfected,,,fold loss of potency,> 60 fold
CS(C)(=O)=Nc1ccc(-c2ccc(-c3nc4cc(O[C@@H]5CO[C@H]6[C@@H]5OC[C@H]6O)[nH]c4cc3F)cc2)cc1,"MAPKAPK3 (Homo sapiens, UniProt Q16644)","enzyme activity, inhibitor",,10 µM,,inhibition,16%
CCOC(=O)C(CC)(CC)NC(=O)c1ccc(C2CC2)c(Cc2ccc(F)cc2)n1,"Cnr2 (Mus musculus, UniProt P47936)","cAMP, agonist",,,,Emax,99%
CN(C)[C@H]1C[C@@]23CC[C@@]4(O2)C(=CC[C@]2(C)[C@@H](c5ccc6ccncc6c5)CC[C@H]24)C=C3[C@@H](O)[C@@H]1O,"MAPK1 (Homo sapiens, UniProt P28482)","ATP probe labelling, inhibitor, KiNativ profiling",,0.1 µM,,inhibition,8.6%
CC[C@H](C)[C@H](NC(=O)[C@H](CCCCN)NC(=O)CNC(=O)[C@H](CC(C)C)NC(=O)[C@H](Cc1ccccc1)NC(=O)[C@H](CCCCN)NC(=O)[C@H](CO)NC(=O)[C@H](Cc1ccccc1)NC(=O)[C@H](Cc1c[nH]c2ccccc12)NC(=O)[C@H](CCC(N)=O)NC(=O)[C@@H](NC(=O)[C@H](Cc1ccccc1)NC(=O)CCCCCNC(=O)CN1CCN(CC(=O)O)CCN(CC(=O)O)CCN(CC(=O)O)CC1)C(C)C)C(=O)N[C@@H](CCC(=O)O)C(=O)N1CCC[C@H]1C(=O)N[C@@H](CC(=O)O)C(=O)N[C@H](C(=O)N[C@@H](CO)C(=O)N[C@@H](CCC(N)=O)C(=O)N[C@H](C(=O)N[C@@H](CCC(N)=O)C(=O)N[C@@H](CC(=O)O)C(=O)N1CCC[C@H]1C(=O)N[C@@H](CC(N)=O)C(=O)N[C@@H](CC(=O)O)C(=O)N[C@@H](CCC(N)=O)C(=O)N[C@@H](Cc1ccc(O)cc1)C(=O)N[C@@H](CCC(=O)O)C(=O)N1CCC[C@H]1C(=O)N[C@@H](Cc1ccccc1)C(=O)O)C(C)C)C(C)C [copper-64 labelled],,,"C57BL/6 mice, male, tumour-free, blood",2 h,,tissue uptake,1.55 ± 0.1 %ID/g
O=C(O)c1ccc(-c2nc(-c3ccccc3Cl)c3sccn23)cc1,"Grin1 (Rattus norvegicus, UniProt P35439)","radioligand binding, safety screen panel",,10 µM,reference: control,specific binding,93.3% and 96.8%
CC[C@H](C)[C@H](NC(=O)[C@H](CO)NC(=O)[C@H](Cc1ccc(O)cc1)NC(=O)[C@H](Cc1ccc(O)cc1)NC(=O)[C@H](CC(N)=O)NC(=O)CNC(=O)[C@H](CO)NC(=O)[C@H](Cc1ccc(O)cc1)NC(=O)[C@H](CO)NC(=O)[C@H](CO)NC(=O)[C@H](CC(N)=O)NC(=O)COCCOCCNC(=O)CN1CCN(CC(=O)O)CCN(CC(=O)O)CCN(CC(=O)O)CC1)C(=O)N[C@@H](CC(C)C)C(N)=O [copper-64 labelled],,dynamic PET,"tamoxifen-induced PDAC mouse model, metastases","0 min, CLDN4-expressing tumours",,maximum metastasis uptake,0 %IA/cc
CCOC(=O)[C@@H]1Cc2c(cc([N+](=O)[O-])cc2[N+](=O)[O-])[C@H](O)[C@]12C(=O)Nc1ccc(Br)cc12,"MAPK8 (Homo sapiens, UniProt P45983)",KINOMEscan,,100 nM,reference: DMSO control,remaining binding,100%
CC(C)CC(O)(CC(C)C)c1cn(C(=O)N2CCCC2)nn1,"Serine hydrolase-like protein (Serhl, Mus musculus, UniProt Q9EPB5)","probe labelling, inhibitor, competitive ABPP-SILAC, measured: Serhl",mouse T cells,"concentration not given, 4 h, in situ, single peptide","reference: treated over DMSO, lower = more inhibition",SILAC ratio,0.94 and 0.84 and 0.69 and 1.76 and 1.74 and 1.75
N[C@H](C(=O)N1CCCC1)C1CCN(c2nccc3c(-c4ncc(Cl)cc4Cl)cccc23)CC1,"PADI2 (Homo sapiens, UniProt Q9Y2J8)",enzyme activity,,"24 µM, high-affinity site, with: Ca2+ 1.5 mM",,kcat,0.261 s⁻¹ and 0.182 s⁻¹
O=C1NC2(CC2)COc2ncc(F)cc2[C@H]2COCCN2c2ccn3ncc1c3n2,,,"Sprague-Dawley rat, male, liver","oral, 20 mg/kg/day, 4 weeks dosing, end of recovery",,organ-to-brain weight ratio,649 ± 99.3%
C#CCCCCOc1ccc2c(c1)CCCN2C(=O)CCl,"Gem-associated protein 4 (Homo sapiens, UniProt P57678)","mass spectrometry profiling, measured: GEMIN4",H460 cell lysate,"100 µM over 10 µM, UniProt P57678",reference: high over low concentration,reactivity ratio,1.45
CC[C@H](C)[C@@H]([C@@H](CC(=O)N1CCC[C@H]1[C@H](OC)[C@@H](C)C(=O)N[C@H](C)[C@@H](O)c1ccccc1)OC)N(C)C(=O)[C@@H](NC(=O)[C@H](C(C)C)N(C)C(=O)OCc1ccc(NC(=O)[C@H](CCCNC(N)=O)NC(=O)[C@@H](NC(=O)CCCCCN2C(=O)CC(SC[C@H](NC(=O)[C@H](CC(=O)O)NC(=O)[C@H](Cc3ccc(O)cc3)NC(=O)[C@H](Cc3c[nH]c4ccccc34)NC(=O)[C@@H](N)CCCNC(=N)N)C(=O)O)C2=O)C(C)C)cc1)C(C)C (stereo partly drawn),,,"C57BL/6 mouse, healthy, kidney","intraperitoneal, 2.5 mg/kg, 0.167 h",,concentration,not detected
COc1ccc(CC(=O)N2CCN(CC(OCc3ccc4ccccc4c3)c3ccc(Cl)cc3Cl)CC2)cc1 (stereo not drawn),"ULK1 (Homo sapiens, UniProt O75385)","enzyme activity, inhibitor, ADP detection",,0.1 µM,,activity vs control,146%
O=C1NC(=O)c2c1c1cc(F)c[n+]3c1c1c2c2cc(O)ccc2[n]1[Ru-4]312([N]=C=S)[S+]3CC[S+]1CC[S+]2CC3 (stereo not drawn),"NTRK2 (Homo sapiens, UniProt Q16620)",enzyme activity,,"100 nM, human enzyme, with: 10 µM ATP",reference: untreated,remaining activity,68%
Cc1sc2c(c1C)C(c1ccc(Cl)cc1)=NC(CC(=O)OC(C)(C)C)c1nnc(C)n1-2 (stereo not drawn),"BDKRB2 (Homo sapiens, UniProt P30411)","ligand displacement, radioligand",,1 µM,,inhibition,-3%
CON(C(=O)c1cn(C)nc1C(F)F)C(C)Cc1c(Cl)cc(Cl)cc1Cl (stereo not drawn),"SDHD/SDHC/SDHB (Sus scrofa, UniProt A5GZW8+D0VWV4+Q007T0)","enzyme activity, inhibitor, DCIP reduction",pig,"0.6 µM, with: DCIP 10 µM",,reaction velocity,0.00192 µM/s and 0.00173 µM/s and 0.00175 µM/s
CC(C)[C@H]1NC(=O)C[C@H]2/C=C/CCSSC[C@@H](NC1=O)C(=O)N[C@H](Cc1cccc3ccccc13)C(=O)NCC(=O)O2,"WNK3 (Homo sapiens, UniProt Q9BYP7)","enzyme activity, inhibitor",,10 µM,,inhibition,-7%
N=C(N)NCCC[C@@H]1NC(=O)[C@H](CCCCNC(=O)CCC(NC(=S)Nc2ccc(CC3CN(CC(=O)O)CCN(CC(=O)O)CCN(CC(=O)O)CCN3CC(=O)O)cc2)C(=O)NCCCC[C@@H]2NC(=O)[C@@H](Cc3ccc(O)cc3)NC(=O)[C@H](CC(=O)O)NC(=O)CNC(=O)[C@H](CCCNC(=N)N)NC2=O)NC(=O)[C@@H](Cc2ccc(O)cc2)NC(=O)[C@H](CC(=O)O)NC(=O)CNC1=O (stereo partly drawn) [scandium-44 labelled],,PET imaging ROI,"female athymic nude mice, U-87 MG xenograft, muscle","intravenous, 0.5 h, with: cRGD 50 mg/kg blocking",,tissue uptake,0.41 ± 0.12 %ID/g
C[C@H](NCc1ccc(-c2ccc(C(F)(F)F)cc2)cc1)C(N)=O,"PLK4 (Homo sapiens, UniProt O00444)","cell-free assay, competition with immobilised ligand",,1 µM,,inhibition,28%
COC(=O)[C@@H](NC(=O)c1nn(Cc2ccc(F)cc2)c2cc(OCCCCNC(=N)N)ccc12)C(C)(C)C,"Cannabinoid receptor 1, with Gz (CNR1, Homo sapiens, UniProt P21554)","GTP turnover, agonist, measured: Gz Gα subtype",,,,maximal efficacy,106%
COc1ccccc1-c1n[nH]c2nc(N[C@H]3CC[C@H](NS(=O)(=O)CC(C)C)CC3)ncc12,"cdc2-related kinase 12 (Leishmania donovani, UniProt A0A3S7WQK2)","competitor, bead pull-down competition",Leishmania donovani extract,0.0032 µM,reference: vehicle,remaining binding,51%
CC(=O)NCCCC[C@@H]1NC(=O)[C@H](Cc2c[nH]c3c(C)cccc23)NC(=O)[C@H]([C@@H](C)O)NC(=O)[C@H](CC(N)=O)NC(=O)[C@@H](NC(C)=O)C(C)(C)SSC(C)(C)[C@@H](C(=O)N[C@@H](Cc2ccc(OCCN)cc2)C(=O)N[C@@H](Cc2ccc3ccccc3c2)C(=O)NC2(C(=O)N[C@@H](CCC(=O)O)C(=O)N[C@@H](CC(N)=O)C(=O)N[C@@H](Cc3cccnc3)C(=O)N(C)CC(N)=O)CCOCC2)NC1=O,human alpha-1-acid glycoprotein 0.14%,equilibrium dialysis,,0.1 µM,,protein binding,8.53 ± 0.73%

# A few entries again:
SMILES,tested on,assay,system,setting,scale,endpoint,result
CCOC(=O)C(CC)(CC)NC(=O)c1ccc(C2CC2)c(Cc2ccc(F)cc2)n1,"Cnr2 (Mus musculus, UniProt P47936)","cAMP, agonist",,,,Emax,99%
CN(C)[C@H]1C[C@@]23CC[C@@]4(O2)C(=CC[C@]2(C)[C@@H](c5ccc6ccncc6c5)CC[C@H]24)C=C3[C@@H](O)[C@@H]1O,"MAPK1 (Homo sapiens, UniProt P28482)","ATP probe labelling, inhibitor, KiNativ profiling",,0.1 µM,,inhibition,8.6%
CC[C@H](C)[C@H](NC(=O)[C@H](CCCCN)NC(=O)CNC(=O)[C@H](CC(C)C)NC(=O)[C@H](Cc1ccccc1)NC(=O)[C@H](CCCCN)NC(=O)[C@H](CO)NC(=O)[C@H](Cc1ccccc1)NC(=O)[C@H](Cc1c[nH]c2ccccc12)NC(=O)[C@H](CCC(N)=O)NC(=O)[C@@H](NC(=O)[C@H](Cc1ccccc1)NC(=O)CCCCCNC(=O)CN1CCN(CC(=O)O)CCN(CC(=O)O)CCN(CC(=O)O)CC1)C(C)C)C(=O)N[C@@H](CCC(=O)O)C(=O)N1CCC[C@H]1C(=O)N[C@@H](CC(=O)O)C(=O)N[C@H](C(=O)N[C@@H](CO)C(=O)N[C@@H](CCC(N)=O)C(=O)N[C@H](C(=O)N[C@@H](CCC(N)=O)C(=O)N[C@@H](CC(=O)O)C(=O)N1CCC[C@H]1C(=O)N[C@@H](CC(N)=O)C(=O)N[C@@H](CC(=O)O)C(=O)N[C@@H](CCC(N)=O)C(=O)N[C@@H](Cc1ccc(O)cc1)C(=O)N[C@@H](CCC(=O)O)C(=O)N1CCC[C@H]1C(=O)N[C@@H](Cc1ccccc1)C(=O)O)C(C)C)C(C)C [copper-64 labelled],,,"C57BL/6 mice, male, tumour-free, blood",2 h,,tissue uptake,1.55 ± 0.1 %ID/g
